# Assay results pooled from the literature.
# Each line is one published result; not all experiments were run side by side. Numbers after ± are the reported error.
# IGHG1: Immunoglobulin heavy constant gamma 1 (IGHG1, Homo sapiens, UniProt P01857)
# UniProt P41145, sequence (whole entry, looked up): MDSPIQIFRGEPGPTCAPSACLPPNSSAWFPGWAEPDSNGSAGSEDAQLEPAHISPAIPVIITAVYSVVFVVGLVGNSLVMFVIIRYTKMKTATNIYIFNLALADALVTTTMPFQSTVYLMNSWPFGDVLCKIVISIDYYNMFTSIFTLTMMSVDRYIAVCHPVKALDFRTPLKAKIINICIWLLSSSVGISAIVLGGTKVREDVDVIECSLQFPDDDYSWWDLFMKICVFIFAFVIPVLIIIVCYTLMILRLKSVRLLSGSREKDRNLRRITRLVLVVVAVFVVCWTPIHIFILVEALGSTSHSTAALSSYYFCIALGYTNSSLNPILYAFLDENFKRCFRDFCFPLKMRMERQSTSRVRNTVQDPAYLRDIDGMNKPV
# UniProt P16732, sequence (whole entry, looked up): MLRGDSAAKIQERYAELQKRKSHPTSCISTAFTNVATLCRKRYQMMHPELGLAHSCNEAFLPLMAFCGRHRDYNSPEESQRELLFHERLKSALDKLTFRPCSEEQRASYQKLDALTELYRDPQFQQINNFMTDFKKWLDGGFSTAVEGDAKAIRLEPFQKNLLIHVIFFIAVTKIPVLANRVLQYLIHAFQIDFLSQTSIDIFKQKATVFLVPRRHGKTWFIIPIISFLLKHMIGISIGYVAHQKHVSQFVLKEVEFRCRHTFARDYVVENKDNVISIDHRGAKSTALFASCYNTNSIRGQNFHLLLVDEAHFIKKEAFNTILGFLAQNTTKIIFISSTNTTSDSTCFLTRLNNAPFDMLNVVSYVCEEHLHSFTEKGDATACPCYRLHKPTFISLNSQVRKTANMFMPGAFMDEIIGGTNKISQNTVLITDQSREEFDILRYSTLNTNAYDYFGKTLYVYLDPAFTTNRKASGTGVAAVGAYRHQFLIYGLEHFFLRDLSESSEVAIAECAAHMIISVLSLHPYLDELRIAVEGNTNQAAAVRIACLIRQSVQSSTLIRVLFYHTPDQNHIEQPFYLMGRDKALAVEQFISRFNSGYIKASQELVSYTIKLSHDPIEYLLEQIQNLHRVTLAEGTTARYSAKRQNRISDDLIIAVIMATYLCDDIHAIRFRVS
# UniProt P0AFI5, sequence (whole entry, looked up): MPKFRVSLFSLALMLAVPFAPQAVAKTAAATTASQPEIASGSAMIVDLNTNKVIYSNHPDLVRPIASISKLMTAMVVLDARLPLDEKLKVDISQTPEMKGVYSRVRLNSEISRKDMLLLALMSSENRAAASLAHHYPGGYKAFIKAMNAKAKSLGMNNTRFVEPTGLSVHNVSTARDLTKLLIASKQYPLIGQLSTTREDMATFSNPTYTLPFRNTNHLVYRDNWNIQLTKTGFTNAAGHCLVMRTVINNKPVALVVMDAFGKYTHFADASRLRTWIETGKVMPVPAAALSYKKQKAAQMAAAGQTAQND
# UniProt P23977, sequence (whole entry, looked up): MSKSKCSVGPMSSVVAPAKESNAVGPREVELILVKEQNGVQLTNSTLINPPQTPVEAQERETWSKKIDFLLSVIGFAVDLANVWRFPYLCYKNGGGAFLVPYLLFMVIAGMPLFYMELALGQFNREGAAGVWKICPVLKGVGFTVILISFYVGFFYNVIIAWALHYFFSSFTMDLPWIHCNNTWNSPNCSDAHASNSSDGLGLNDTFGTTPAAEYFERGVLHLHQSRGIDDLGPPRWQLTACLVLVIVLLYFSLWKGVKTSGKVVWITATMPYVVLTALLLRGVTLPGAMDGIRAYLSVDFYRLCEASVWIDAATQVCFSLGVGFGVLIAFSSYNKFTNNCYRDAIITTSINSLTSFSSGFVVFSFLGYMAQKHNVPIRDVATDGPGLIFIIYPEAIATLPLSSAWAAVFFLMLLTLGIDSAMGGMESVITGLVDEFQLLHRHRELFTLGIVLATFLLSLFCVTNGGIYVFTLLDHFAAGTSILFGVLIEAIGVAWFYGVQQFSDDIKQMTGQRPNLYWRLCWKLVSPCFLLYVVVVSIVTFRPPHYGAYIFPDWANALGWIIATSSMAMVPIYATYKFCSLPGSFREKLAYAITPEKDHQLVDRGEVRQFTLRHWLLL
# UniProt Q01827, sequence (whole entry, looked up): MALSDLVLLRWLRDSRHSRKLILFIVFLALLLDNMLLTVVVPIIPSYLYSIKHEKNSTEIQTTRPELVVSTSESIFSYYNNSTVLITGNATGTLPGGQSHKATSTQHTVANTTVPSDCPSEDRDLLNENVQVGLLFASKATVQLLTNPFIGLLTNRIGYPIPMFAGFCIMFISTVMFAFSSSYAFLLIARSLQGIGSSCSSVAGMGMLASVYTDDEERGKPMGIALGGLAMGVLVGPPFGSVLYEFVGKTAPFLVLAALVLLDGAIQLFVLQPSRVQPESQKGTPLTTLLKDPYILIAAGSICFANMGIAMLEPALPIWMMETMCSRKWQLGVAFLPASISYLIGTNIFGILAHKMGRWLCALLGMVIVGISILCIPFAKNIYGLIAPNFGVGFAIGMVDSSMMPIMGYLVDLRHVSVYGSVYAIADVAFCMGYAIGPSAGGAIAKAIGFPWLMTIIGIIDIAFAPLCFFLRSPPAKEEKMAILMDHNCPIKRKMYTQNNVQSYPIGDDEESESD
# UniProt Q01726, sequence (whole entry, looked up): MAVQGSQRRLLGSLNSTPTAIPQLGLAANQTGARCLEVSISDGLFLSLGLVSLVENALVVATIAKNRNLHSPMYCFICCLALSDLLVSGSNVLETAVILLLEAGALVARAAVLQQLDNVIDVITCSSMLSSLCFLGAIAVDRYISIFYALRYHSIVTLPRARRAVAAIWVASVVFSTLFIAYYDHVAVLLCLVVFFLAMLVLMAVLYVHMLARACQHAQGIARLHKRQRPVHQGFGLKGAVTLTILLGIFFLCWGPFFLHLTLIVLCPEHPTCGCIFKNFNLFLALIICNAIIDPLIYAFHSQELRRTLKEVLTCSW
# UniProt P25021, sequence (whole entry, looked up): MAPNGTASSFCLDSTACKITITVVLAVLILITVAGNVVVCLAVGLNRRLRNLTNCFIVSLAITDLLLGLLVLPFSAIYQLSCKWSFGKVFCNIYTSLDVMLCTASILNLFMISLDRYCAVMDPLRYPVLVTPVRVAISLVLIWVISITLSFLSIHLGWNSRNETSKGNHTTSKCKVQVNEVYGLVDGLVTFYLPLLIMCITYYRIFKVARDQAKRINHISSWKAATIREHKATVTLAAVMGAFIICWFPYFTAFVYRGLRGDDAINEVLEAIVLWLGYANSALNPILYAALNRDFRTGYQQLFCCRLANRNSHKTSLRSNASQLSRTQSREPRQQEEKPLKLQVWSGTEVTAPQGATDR
# UniProt P08575, sequence (whole entry, looked up): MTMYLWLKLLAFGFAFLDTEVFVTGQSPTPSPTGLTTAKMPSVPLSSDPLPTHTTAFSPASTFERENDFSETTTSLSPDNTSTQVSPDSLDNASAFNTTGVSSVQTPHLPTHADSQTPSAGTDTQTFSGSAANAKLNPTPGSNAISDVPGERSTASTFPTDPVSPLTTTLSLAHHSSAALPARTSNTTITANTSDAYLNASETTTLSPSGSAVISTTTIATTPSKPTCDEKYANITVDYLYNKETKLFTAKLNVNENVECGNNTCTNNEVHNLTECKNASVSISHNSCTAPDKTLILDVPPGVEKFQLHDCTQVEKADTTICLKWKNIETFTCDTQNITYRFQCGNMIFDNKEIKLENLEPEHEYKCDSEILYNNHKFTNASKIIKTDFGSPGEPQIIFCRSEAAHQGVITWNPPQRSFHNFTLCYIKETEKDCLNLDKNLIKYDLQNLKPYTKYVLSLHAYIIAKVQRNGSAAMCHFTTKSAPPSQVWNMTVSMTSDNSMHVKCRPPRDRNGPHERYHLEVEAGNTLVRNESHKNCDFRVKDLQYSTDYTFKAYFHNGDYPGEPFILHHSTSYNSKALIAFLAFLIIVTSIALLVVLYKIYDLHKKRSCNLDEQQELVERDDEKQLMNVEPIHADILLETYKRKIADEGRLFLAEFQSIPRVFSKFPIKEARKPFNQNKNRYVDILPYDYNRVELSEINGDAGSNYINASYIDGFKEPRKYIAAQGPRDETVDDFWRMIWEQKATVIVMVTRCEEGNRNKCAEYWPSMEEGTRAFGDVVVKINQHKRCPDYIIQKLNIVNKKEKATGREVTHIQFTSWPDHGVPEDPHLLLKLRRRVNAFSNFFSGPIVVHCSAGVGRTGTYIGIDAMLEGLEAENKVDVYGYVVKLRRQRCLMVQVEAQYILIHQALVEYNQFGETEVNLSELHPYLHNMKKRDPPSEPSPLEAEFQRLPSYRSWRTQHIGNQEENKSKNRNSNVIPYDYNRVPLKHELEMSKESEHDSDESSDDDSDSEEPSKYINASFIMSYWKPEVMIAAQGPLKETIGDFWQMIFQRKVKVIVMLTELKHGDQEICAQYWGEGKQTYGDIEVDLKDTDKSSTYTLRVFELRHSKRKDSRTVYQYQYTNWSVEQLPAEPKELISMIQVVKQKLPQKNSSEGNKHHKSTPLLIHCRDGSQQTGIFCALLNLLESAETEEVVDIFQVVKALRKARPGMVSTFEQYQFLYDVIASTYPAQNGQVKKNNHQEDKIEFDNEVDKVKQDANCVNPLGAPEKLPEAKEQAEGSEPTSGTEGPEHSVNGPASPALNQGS
SMILES,target or system,assay,test system,setting,measurement,result
COc1ccc(-c2ccc(Sc3cc(=O)n(O)c(=O)[nH]3)cc2)cc1,"Tripartite terminase subunit 3, C-terminal nuclease domain (Human betaherpesvirus 5, UniProt P16732)","endonuclease activity, ELISA",,,IC50,34 ± 1.3 µM
COc1ccc(C[C@H]2NC[C@H](O)[C@H]2OC(C)=O)cc1,pigeon embryo fibroblasts,cytotoxicity,,,CC50,60 µM
Oc1ccc2c3c1O[C@H]1c4[nH]c5c(c4C[C@@]4(O)[C@@H](C2)N(CC2CC2)CC[C@]314)C[C@@]1(O)[C@H]2Cc3ccc(O)c4c3[C@@]1(CCN2CC1CC1)[C@H]5O4,"OPRK1 (Homo sapiens, UniProt P41145)",,,together with: 140 mM sodium,Emax,25.2 ± 7.07%
CC[C@H](C)[C@H](NC(=O)[C@H](CCCCN)NC(=O)[C@H](CCC(N)=O)NC(=O)[C@H](Cc1ccccc1)NC(=O)[C@@H](NC(=O)[C@H](CCCCN)NC(=O)[C@H](CCCCN)NC(=O)[C@H](CC(C)C)NC(=O)[C@H](C)NC(=O)[C@H](CC(N)=O)NC(=O)[C@@H](N)CC(C)C)C(C)C)C(=O)N[C@@H](Cc1c[nH]cn1)C(=O)N[C@@H](CCC(=O)O)C(=O)N[C@@H](C)C(N)=O,Staphylococcus aureus,,"MW2, resistant","18 h, 37 °C",MIC,16 µM
CC(=O)NCC(=O)N1CCC[C@H]1C(=O)N[C@@H](C)C(=O)N[C@H]1CSSC[C@@H](C(=O)N[C@H](C(=O)N[C@@H](Cc2ccccc2)C(=O)N[C@@H](Cc2c[nH]cn2)C(N)=O)[C@@H](C)O)NC(=O)[C@H](Cc2c[nH]c3ccccc23)NC(=O)[C@H](C(C)C)NC(=O)[C@H](CC(C)C)NC(=O)[C@H](CCC(=O)O)NC(=O)CNC(=O)[C@H](CCCCN)NC(=O)[C@H](Cc2c[nH]cn2)NC(=O)[C@H](Cc2ccc(O)cc2)NC(=O)[C@H](C)NC1=O,IGHG1,"binding, SPR",,"pH 7.4, together with: immobilized Herceptin",Kd,0.762 ± 0.005 µM
O=C(N[C@H](Cc1ccc(Cl)cc1)C(=O)N1CCC(Cn2cncn2)(C2CCCCC2)CC1)[C@H]1Cc2ccccc2CN1,"MC1R (Homo sapiens, UniProt Q01726)","cAMP production, agonist",A-375,,EC50,0.95 ± 0.025 µM
CC(=O)N[C@@H](C)C(=O)N1CCC[C@H]1C(=O)N[C@@H](CC(=O)O)C(=O)N[C@H]1CSSC[C@@H](C(=O)N[C@H](C(=O)N[C@@H](Cc2ccccc2)C(=O)N[C@@H](Cc2c[nH]cn2)C(N)=O)[C@@H](C)O)NC(=O)[C@H](Cc2c[nH]c3ccccc23)NC(=O)[C@H](C(C)C)NC(=O)[C@H](CC(C)C)NC(=O)[C@H](CCC(=O)O)NC(=O)CNC(=O)[C@H](CCCCN)NC(=O)[C@H](Cc2c[nH]cn2)NC(=O)[C@H](Cc2ccc(O)cc2)NC(=O)[C@H](C)NC1=O,IGHG1,"binding, SPR",,"pH 7.4, together with: immobilized Herceptin",Kd,0.248 ± 0.003 µM
CC(=O)[C@H]1CC[C@H]2[C@@H]3CCC4=CC(=O)CC[C@]4(C)[C@H]3CC[C@]12C,"HRH2 (Homo sapiens, UniProt P25021)",cell-based activity,,,IC50,25.4 µM
CC1(C)S[C@@H]2[C@H](NC(=O)Cc3ccccc3)C(=O)N2[C@H]1C(=O)O,"pbpG (Escherichia coli, UniProt P0AFI5)","binding, Bocillin-FL competition",Escherichia coli MG1655 live,"30 min, together with: Tris-EDTA permeabilization",IC50,< 1000 µM
C[C@H](N)C(=O)c1ccccc1,"Slc6a3 (Rattus norvegicus, UniProt P23977)","MPP+ release, releaser",rat striatal synaptosomes,together with: [3H]MPP+,EC50,0.018 µM
COc1cc2c(cc1OC)C1CC(=O)C(CC(C)C)CN1CC2 (racemic),"Slc18a2 (Rattus norvegicus, UniProt Q01827)",radioligand binding,rat striatal homogenate,together with: [3H]-(±)-cpd,Ki,0.0013 ± 0.0001 µM
O=P(O)(O)C(F)(F)c1ccccc1,"PTPRC (Homo sapiens, UniProt P08575)",,,pH 7,IC50,> 10000 µM

# Some of these lines once more:
SMILES,target or system,assay,test system,setting,measurement,result
CC[C@H](C)[C@H](NC(=O)[C@H](CCCCN)NC(=O)[C@H](CCC(N)=O)NC(=O)[C@H](Cc1ccccc1)NC(=O)[C@@H](NC(=O)[C@H](CCCCN)NC(=O)[C@H](CCCCN)NC(=O)[C@H](CC(C)C)NC(=O)[C@H](C)NC(=O)[C@H](CC(N)=O)NC(=O)[C@@H](N)CC(C)C)C(C)C)C(=O)N[C@@H](Cc1c[nH]cn1)C(=O)N[C@@H](CCC(=O)O)C(=O)N[C@@H](C)C(N)=O,Staphylococcus aureus,,"MW2, resistant","18 h, 37 °C",MIC,16 µM
C[C@H](N)C(=O)c1ccccc1,"Slc6a3 (Rattus norvegicus, UniProt P23977)","MPP+ release, releaser",rat striatal synaptosomes,together with: [3H]MPP+,EC50,0.018 µM
